Measured values of several laboratories.
Numbered parts are unrelated; each lists some results of a single study.

Set 1 — cell line: HEK-293T/ACE2; tested at: concentration not given; time: 16 (unit not given); reference: vehicle
For `CCCC(=O)O[C@]1(C(=O)CO)CC[C@H]2[C@@H]3CCC4=CC(=O)CC[C@]4(C)[C@H]3[C@@H](O)C[C@@]21C`, the viability was 106%.
With `N=C(N)c1ccc(OCCCCCOc2ccc(C(=N)N)cc2)cc1` the viability was 89.2%.
`COc1c(N2CCNC(C)C2)c(F)cc2c(=O)c(C(=O)O)cn(C3CC3)c12` (stereo not shown) has a viability of 97.9%.
The viability of `COc1cc2nc(N3CCN(C(=O)C4CCCO4)CC3)nc(N)c2cc1OC` (stereo not shown) is reported as 109%.

Set 2 — method: RNA Bind-n-Seq; molecule type: RNA; medium: in vitro; tested at: not given; reference: input RNA pool; direction: higher = stronger binding
Target: RING finger protein unkempt homolog, zinc fingers 1-6, GST-SBP tag (UNK, Homo sapiens, UniProt Q9C0B0, residues 30-357)
Setting: RNA with constant flanks, human-mouse chimeric sites, ends assumed
Construct (chain): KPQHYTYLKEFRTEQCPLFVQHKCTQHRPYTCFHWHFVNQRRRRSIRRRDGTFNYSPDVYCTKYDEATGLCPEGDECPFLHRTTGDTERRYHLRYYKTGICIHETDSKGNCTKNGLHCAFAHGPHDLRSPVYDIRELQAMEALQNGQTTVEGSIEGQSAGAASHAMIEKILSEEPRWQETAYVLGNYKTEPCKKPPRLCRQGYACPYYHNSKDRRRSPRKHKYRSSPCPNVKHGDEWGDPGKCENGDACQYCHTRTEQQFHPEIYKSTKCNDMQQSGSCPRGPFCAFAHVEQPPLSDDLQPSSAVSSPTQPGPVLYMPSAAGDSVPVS
`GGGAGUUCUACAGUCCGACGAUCGUUGCCAGCUUCCGGUUCCGUUGGGCUCGGUUCUCUCCUGAGCUACGUGUCUCUACGCUCUCAAUCCCGGUUGGGUAAAACAUGGAUCAGGUAAUGCUGCAGUUUGUGCCCAGCCGGCAGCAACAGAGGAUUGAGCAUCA` gave a bound/input enrichment of 0.0788 ratio.
`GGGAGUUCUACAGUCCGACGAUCUAAGUCCUGUGCCAGCACUUCGCUCAUAAAGUUUUAAAUUCUGGACCAAUAGUGUUUGUUUCCUGAUUUUUGUAUUCAAUACUUUAUCUAGUAUGUAACUCACUCUUACUGAUAAUAAAACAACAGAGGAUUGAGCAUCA` gave a bound/input enrichment of 0.888 ratio.
With `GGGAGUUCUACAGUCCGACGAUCGAUCUCGGGCCCUCCCCAGGGGCCUCCUUUCGUAUAGUCACUGCUUCUGCAUCAGAUACUUUCAGCUGCAACUCCCUACUGGGUGGGGCACCUAUCUCAGGCAGAAGGUUUUGGUACCCUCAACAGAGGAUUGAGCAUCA` the bound/input enrichment was 0.112 ratio.
`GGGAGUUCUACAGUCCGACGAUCAAAGAACUACUGAGGCAAGGCAGCAAAUUUAGGAGAGACAUUUCAACAAUAUUGAUAGAGUUAGGAUUCCAAAUUAAAAAGAAAACUAAAAGAUUGUAUAUCAACAAAGCCAAUGUGUGGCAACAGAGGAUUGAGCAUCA` gave a bound/input enrichment of 7.18 ratio.
`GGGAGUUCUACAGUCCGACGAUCCUUAAUGUUAAUAUUUUUGAAUAAAUGAAGCUAAAAUGUCUGCUUUUGGUACAACACGCAUUAAUAAAAGGUUAAGUUUUGUUUUCCCUCCACUGAAUAUUUAACAUACAUCUCAGAAACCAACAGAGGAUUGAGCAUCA` gave a bound/input enrichment of 0.329 ratio.
`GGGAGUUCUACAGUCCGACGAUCGGGUGGGUGGUCAUUGCCGUUUGAGCUGCUGAUUUUCAUGAGUCGCCUUCAAAACUCUCGUGUAGGGUUGACAAUGUGGGGGGGUGGGGGAUCCAGCUUAUUCUUUUUCCCCAGCCCCCACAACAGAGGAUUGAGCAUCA` has a bound/input enrichment of 0.955 ratio.
With `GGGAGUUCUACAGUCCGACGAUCCCCCAAUUACCAUCUGUGGUCUGGAACUGCACUCUCUUUUUUAAAAAACAUGUAUACAUUUUAGGGCUGUAGAUUUACUUUCCUAUUUUUGUUUUUCAUUGCUGACUUUUGAGCACAGAACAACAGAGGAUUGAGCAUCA` the bound/input enrichment was 1.44 ratio.
With `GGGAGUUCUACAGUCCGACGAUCUUACUUUUGACUCCCUGGGUCAAGUUCCUGUGGGAAUCAUACAGGCAGUGUUUGGACCUUCUUAGAAACAAUUCUAGAGUAGAGCGCCUUUACCAUGAUAUCGCCCAACAAGCUUUCAAACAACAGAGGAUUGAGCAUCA` the bound/input enrichment was 0.255 ratio.

Set 3 — method: protein-binding microarray; molecule type: hairpin DNA; medium: in vitro; tested at: not given; reference: not given; direction: higher = stronger binding; all sequences stand within: GAGGCCG … CGGCCTCACACTC
Target: Cyclic AMP-responsive element-binding protein 1, full length (CREB1, Homo sapiens, UniProt P16220, residues 1-327)
Chain of UniProt P16220 (whole entry, looked up): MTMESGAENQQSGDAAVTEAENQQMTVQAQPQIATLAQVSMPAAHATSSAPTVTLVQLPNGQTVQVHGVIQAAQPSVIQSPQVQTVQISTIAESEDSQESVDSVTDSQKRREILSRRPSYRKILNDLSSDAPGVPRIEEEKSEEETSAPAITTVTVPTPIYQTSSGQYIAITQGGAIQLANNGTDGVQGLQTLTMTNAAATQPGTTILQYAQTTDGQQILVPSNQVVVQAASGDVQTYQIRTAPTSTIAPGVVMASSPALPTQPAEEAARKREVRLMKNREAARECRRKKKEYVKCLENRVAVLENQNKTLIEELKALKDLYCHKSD
Setting: whole hairpin DNA, median over replicate spots
With `GCTGACGGCAGCCTCCTGGCTGCCGTCAGC` the median fluorescence was 3240 a.u.
For `ACGACGTCGTGCCTCCTGGCACGACGTCGT (5mC at 9 35)`, the median fluorescence was 4180 a.u.
`ACGACGTCGTGCCTCCTGGCACGACGTCGT (5mC at 9 15 29 35)` gave a median fluorescence of 4640 a.u.
For `GCGGACGTCAGCCTCCTGGCTGACGTCCGC (5mC at 9)`, the median fluorescence was 4480 a.u.
For `ACGACGTCGTGCCTCCTGGCACGACGTCGT (5mC at 9 15 29 32 35)`, the median fluorescence was 3150 a.u.
The median fluorescence of `GCGGACGTCAGCCTCCTGGCTGACGTCCGC (5mC at 9 35)` is reported as 4520 a.u.
`ACGACGTCGTGCCTCCTGGCACGACGTCGT (5mC at 9 12 15 29 32 35)` gave a median fluorescence of 2800 a.u.

Set 4 — effect on: enzyme activity; mode: inhibitor; tested at: 20 µM
Target: Replicase polyprotein 1ab, polymerase (rep, Severe acute respiratory syndrome coronavirus 2, UniProt P0DTD1)
`OCc1ccc(CO)o1` gave an inhibition of -3.02%.
`CCc1nn(CCO)c(CC)c1Oc1cc(C#N)cc(C#N)c1` has an inhibition of -1.76%.
`COc1nc2ccc(Br)cc2cc1[C@@H](c1ccccc1)[C@@](O)(CCN(C)C)c1cccc2ccccc12` gave an inhibition of -2.34%.
`Cn1cc(C(F)(F)F)nc1-c1ccc(OCC(O)CNCCOc2ccc(O)c(C(N)=O)c2)cc1` (stereo not shown) gave an inhibition of 7.12%.
With `CC(C)C[C@H](NC(=O)[C@@H]1CCCN1)C(=O)NCC(N)=O` the inhibition was 1.25%.
`CC(C)(C)OC(=O)c1ncn2c1[C@@H]1CCCN1C(=O)c1c(Br)cccc1-2` has an inhibition of -4.42%.
`O=C(Nc1cc(C(F)(F)F)ccc1O)Nc1cc(C(F)(F)F)ccc1O` gave an inhibition of -5.79%.
`CC1(C)CC[C@]2(NC(=O)C(C)(F)F)CC[C@]3(C)[C@H](C(=O)C=C4[C@@]5(C)C=C(C#N)C(=O)C(C)(C)[C@@H]5CC[C@]43C)[C@@H]2C1` has an inhibition of 2.64%.
For `O=C(O)C(O)[C@H](O)[C@@H](O)[C@H](O)[C@H](O)CO` (stereo partly shown), the inhibition was 3.35%.
With `N[C@@H]1[C@H]2CN(c3nc4c(cc3F)c(=O)c(C(=O)O)cn4-c3ccc(F)cc3F)C[C@@H]12` the inhibition was 4.2%.
For `CC(O)CCCCn1c(=O)c2c(ncn2C)n(C)c1=O` (racemic), the inhibition was -1.79%.
With `COc1ccccc1N1CCN(CCN2C(=O)c3ccccc3C(C)(C)C2=O)CC1` the inhibition was -1.2%.
With `CCOc1ccc(Cc2nccc3cc(OCC)c(OCC)cc23)cc1OCC` the inhibition was 3.63%.
For `O=C(NC1CCNCC1)c1n[nH]cc1NC(=O)c1c(Cl)cccc1Cl`, the inhibition was -5.05%.
The inhibition of `Cc1ccc(Sc2ccccc2N2CCNCC2)c(C)c1` is reported as 9.02%.
`Cc1cc(O)c(-c2ccc([C@@H](C)CN)cc2)c2c1[nH]c(=O)c1sccc12` gave an inhibition of 6.09%.
`CC(Oc1c(Cl)cccc1Cl)C1=NCCN1` (stereo not shown) has an inhibition of -0.59%.
The inhibition of `O=S(=O)(c1ccccc1)N(CC(F)(F)F)c1ccc(C(O)(C(F)(F)F)C(F)(F)F)cc1` is reported as 0.46%.
`O=C(NC(NC(=S)Nc1ccc(F)c([N+](=O)[O-])c1)C(Cl)(Cl)Cl)C(c1ccccc1)c1ccccc1` (stereo not shown) has an inhibition of 5.7%.
For `COc1ccc(Nc2ncnc3ccc(OC)cc23)cc1`, the inhibition was 3.25%.
`C[C@@]1(c2cc(-c3cncnc3)c(F)cc2F)CCSC(N)=N1` gave an inhibition of 4.37%.
With `O=C(O)CNC(=O)c1nc(Cl)c2ccccc2c1O` the inhibition was -3.89%.
`CC(=O)O[C@]1(C(C)=O)CC[C@H]2[C@@H]3C[C@H](C)C4=CC(=O)C=C[C@]4(C)[C@@]3(F)[C@@H](O)C[C@@]21C` gave an inhibition of -4.49%.
For `COc1cc(C(=O)N2CCOCC2)cc(OC)c1OC`, the inhibition was -0.48%.
With `CCCCCCCCCCCCCCCC=O` the inhibition was -1.54%.

Set 5 — effect on: enzyme activity; mode: inhibitor; tested at: 20 µM; setting: hit confirmation
Target: Replicase polyprotein 1ab, main protease (rep, Severe acute respiratory syndrome coronavirus 2, UniProt P0DTD1)
The inhibition of `O=C1C(=Cc2cccnc2)C(=O)c2ccccc21` is reported as 75.7%.
`O=S(=O)(/N=C/c1c(O)ccc2ccccc12)c1cccs1` gave an inhibition of 14.7%.
For `Cc1ccc(S(=O)(=O)N[C@@H](Cc2ccccc2)C(=O)CCl)cc1`, the inhibition was 108%.

Set 6 — method: protein-binding microarray; molecule type: double-stranded DNA, one strand shown; medium: in vitro; tested at: 2540 nM top; setting: 60-bp whole probe; added: salmon DNA 0.4 mg/ml; reference: random background probes; direction: higher = stronger binding; all sequences stand within: GCCTAGCAC … GTCTTGATTCGCTTGACGCTGCTG
Target: Interferon regulatory factor 3, full length, phosphomimetic (IRF3, Homo sapiens, UniProt Q14653, residues 1-427, S386D/S396D/S398D/S402D/T404D/S405D)
Construct (chain): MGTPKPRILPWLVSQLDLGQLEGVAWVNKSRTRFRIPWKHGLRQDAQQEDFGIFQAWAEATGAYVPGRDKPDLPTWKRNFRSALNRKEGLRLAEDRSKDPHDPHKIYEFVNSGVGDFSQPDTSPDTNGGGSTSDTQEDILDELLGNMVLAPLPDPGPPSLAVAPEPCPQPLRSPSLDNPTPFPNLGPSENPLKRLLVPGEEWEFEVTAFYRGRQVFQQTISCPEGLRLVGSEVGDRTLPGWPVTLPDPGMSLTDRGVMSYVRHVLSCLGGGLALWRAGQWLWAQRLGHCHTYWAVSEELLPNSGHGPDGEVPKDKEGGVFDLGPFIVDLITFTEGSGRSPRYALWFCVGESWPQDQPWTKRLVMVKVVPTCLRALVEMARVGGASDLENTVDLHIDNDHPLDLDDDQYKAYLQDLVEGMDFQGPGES
For `TCACGAGTCCCTATCTCACTGTGCTAG`, “fitted relative affinity” read 0.231 z-score.
For `TTAGATTCCAGTTTGGATTAGTGCTAG`, “fitted relative affinity” read 2.83 z-score.
For `TTAGGTATCCTTCTCCTTCAGTGCTAG`, “fitted relative affinity” read 7.2 z-score.
Under “fitted relative affinity”, `GACGGTCTCCTTCTCCCGACGTGCTAG` is recorded as 4.39 z-score.
`TTAGGACTGCGTCTCCTTTAGTGCTAG` — result for “fitted relative affinity”: -0.184 z-score.
`TCAATGCTGGCTTTTATACTGTGCTAG` — result for “fitted relative affinity”: -0.65 z-score.
`TTATGACTGGACTTTCGGTTAGTGCTA` — result for “fitted relative affinity”: 1.19 z-score.
`TCACATTTTTCCCTCTGACTGTGCTAG` — result for “fitted relative affinity”: 1.66 z-score.

Excerpt of the above (set 4):
`CC(C)(C)OC(=O)c1ncn2c1[C@@H]1CCCN1C(=O)c1c(Br)cccc1-2` has an inhibition of -4.42%.
`O=C(Nc1cc(C(F)(F)F)ccc1O)Nc1cc(C(F)(F)F)ccc1O` gave an inhibition of -5.79%.
`CC1(C)CC[C@]2(NC(=O)C(C)(F)F)CC[C@]3(C)[C@H](C(=O)C=C4[C@@]5(C)C=C(C#N)C(=O)C(C)(C)[C@@H]5CC[C@]43C)[C@@H]2C1` has an inhibition of 2.64%.
For `O=C(O)C(O)[C@H](O)[C@@H](O)[C@H](O)[C@H](O)CO` (stereo partly shown), the inhibition was 3.35%.
With `N[C@@H]1[C@H]2CN(c3nc4c(cc3F)c(=O)c(C(=O)O)cn4-c3ccc(F)cc3F)C[C@@H]12` the inhibition was 4.2%.
For `CC(O)CCCCn1c(=O)c2c(ncn2C)n(C)c1=O` (racemic), the inhibition was -1.79%.
With `COc1ccccc1N1CCN(CCN2C(=O)c3ccccc3C(C)(C)C2=O)CC1` the inhibition was -1.2%.
